Measured values collected from several papers.
Parts stem from different laboratories: compare values within a part only.

Sample 1 — technique: protein-binding microarray; form: double-stranded DNA, one strand shown; matrix: in vitro; tested at: 250 nM; notes: 60-bp whole probe; with: salmon DNA 0.4 mg/ml; baseline: random background probes; reading: higher = stronger binding
Target: Interferon regulatory factor 7, full length, phosphomimetic (IRF7, Homo sapiens, UniProt Q92985, residues 1-503, S101K/S471D/S472D/S475D/S476D/S477D/S483D/S484D/S487D)
UniProt Q92985, sequence (whole entry, unmodified, looked up): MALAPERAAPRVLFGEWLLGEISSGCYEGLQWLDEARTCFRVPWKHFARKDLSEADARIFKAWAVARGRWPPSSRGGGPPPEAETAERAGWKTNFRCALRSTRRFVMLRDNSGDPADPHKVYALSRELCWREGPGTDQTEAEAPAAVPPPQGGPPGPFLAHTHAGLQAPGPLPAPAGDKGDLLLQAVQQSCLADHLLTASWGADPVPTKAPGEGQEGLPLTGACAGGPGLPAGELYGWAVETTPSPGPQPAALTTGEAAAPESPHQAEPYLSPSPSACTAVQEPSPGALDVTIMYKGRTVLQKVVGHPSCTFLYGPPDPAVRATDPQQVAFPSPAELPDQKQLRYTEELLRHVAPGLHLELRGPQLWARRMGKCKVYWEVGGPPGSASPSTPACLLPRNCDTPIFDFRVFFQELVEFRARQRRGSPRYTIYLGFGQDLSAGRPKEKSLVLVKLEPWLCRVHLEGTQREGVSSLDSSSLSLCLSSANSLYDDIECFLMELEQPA
Constant ends, left off below: GCCTAGCACT … GTGCTAGGTCTTGATTCGCTTGACGCTGCTG
Strand | log fluorescence [z-score]
CATACATCTCTCTTAAACT | 0.406
TAGATCTGAGACTGGATTA | 0.0148
CAAGTTTTCATTTTCTACT | 3
TGTATCTGGGTTCCCCCCC | 0.523
TAGAGTTCAGTTCCGATTA | 0.562

Sample 2 — technique: RNAcompete; form: RNA; matrix: in vitro; tested at: 20 nM; notes: 7-mer, probes averaged, single round; baseline: mean of 7-mers; reading: higher = stronger binding
Target: PABPC1L2, full length, GST fusion (mouse, UniProt A0ABA7IW68)
Strand | 7-mer Z-score
UACUAUU | -0.266
ACGGCGA | 0.119
UUGAUAA | 0.109
GUCUAAA | 0.488

Sample 3 — technique: aptamer microarray, sandwich; form: DNA with 2'F-ANA; matrix: in vitro; tested at: 200 nM; with: Cy3 exosite-II aptamer, 400 nM; reading: higher = stronger binding; strand: GGTTGGTGTGGTTGG
Target: Prothrombin, mature alpha-thrombin (F2, Homo sapiens, UniProt P00734)
Notes: whole 15-mer aptamer, many near background
Modification | mean fluorescence intensity [a.u.]
2'F-ANA at 3 5 8 11 12 14 15 | 64.4
2'F-ANA at 2 4 6 7 10 11 | 74.7
2'F-ANA at 2 3 9 10 11 12 13 | 384
2'F-ANA at 2 5 8 9 11 14 15 | 54
2'F-ANA at 2 4 5 6 7 13 15 | 50.8

Further values, each from its own experiment
Substance | target | test | test system | conditions | scale | endpoint | result
PhoQ, residues 284 288 289 292 302 303 TNSAEL | PhoP, residues 12 14 15 18 19 TPWLV (Escherichia coli, UniProt P23836) | Sort-seq, measured: YFP reporter | E. coli | PhoQ-PhoP variant library, with: 10 µM Mg2+ | baseline: high Mg2+ state, higher = stronger signaling | fold induction | 0.875

A few entries again (sample 3):
Modification | mean fluorescence intensity [a.u.]
2'F-ANA at 2 5 8 9 11 14 15 | 54
